Measurements pooled from the literature.
Parts stem from different laboratories: compare values within a part only. Substitutions count along the parent as printed.

Study 1
Variant: L93S
Target: ABI1, truncated, D143A, DHFR fusion (Arabidopsis thaliana)
Method: DHFR PCA, deep sequencing
Matrix: yeast
Setting: methotrexate growth selection, single substitutions
Reference: wild-type fitted maximum
Direction: higher = stronger binding
Quantity: relative binding score
Starting sequence: PYL1, truncated, DHFR fusion (Arabidopsis thaliana); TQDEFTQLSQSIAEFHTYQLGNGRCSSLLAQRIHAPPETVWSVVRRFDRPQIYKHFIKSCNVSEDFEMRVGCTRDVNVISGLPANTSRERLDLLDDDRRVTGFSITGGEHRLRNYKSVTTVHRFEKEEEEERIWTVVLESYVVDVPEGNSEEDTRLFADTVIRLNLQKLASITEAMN; partner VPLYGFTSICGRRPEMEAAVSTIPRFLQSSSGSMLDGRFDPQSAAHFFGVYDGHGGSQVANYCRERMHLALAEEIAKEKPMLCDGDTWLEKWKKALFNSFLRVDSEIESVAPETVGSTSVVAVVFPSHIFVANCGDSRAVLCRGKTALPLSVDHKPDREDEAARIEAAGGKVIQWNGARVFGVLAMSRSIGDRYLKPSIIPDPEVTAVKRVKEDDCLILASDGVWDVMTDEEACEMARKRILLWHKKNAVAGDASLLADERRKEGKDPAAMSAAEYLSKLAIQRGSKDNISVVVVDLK
added: (+)-ABA 2500 µM: 103%
added: (+)-ABA 200 µM: 91%
added: (+)-ABA 0.032 µM: 0.306%
added: (+)-ABA 58 µM: 67.9%
added: (+)-ABA 1.4 µM: 9.84%
added: (+)-ABA 0.11 µM: -0.544%

Study 2
Target: UBE2A UBC core domain (UniProt P49459)
Chain of UniProt P49459 (whole entry, looked up): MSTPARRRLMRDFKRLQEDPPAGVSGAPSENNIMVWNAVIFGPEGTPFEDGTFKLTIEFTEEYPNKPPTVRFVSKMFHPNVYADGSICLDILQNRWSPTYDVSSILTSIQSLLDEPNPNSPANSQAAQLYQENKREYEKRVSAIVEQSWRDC
Method: yeast two-hybrid
Matrix: yeast
Setting: mostly zero background
Reference: not given
Direction: higher = stronger interaction
Quantity: lacZ reporter activity
B1: MID1 RING domain (UniProt O15344); chain METLESELTCPICLELFEDPLLLPCAHSLCFNCAHRILVSHCATNESVESITAFQCPTCRHVITLSQRGL
B2: RNF170 RING domain (UniProt Q96K19); chain TRQQFYTDMYCPICLHQASFPVETNCGHLFCGACIIAYWRYGSWLGAISCPICRQTVTLLLTVF
B3: RC3H2 RING domain (UniProt Q9HBD1); chain QAAQWTEFLSCPICYNEFDENVHKPISLGCSHTVCKTCLNKLHRKACPFDQTAINTDIDVL
B4: TRIM8 RING domain (UniProt Q9BZR9); chain WKNCFEEELICPICLHVFVEPVQLPCKHNFCRGCIGEAWAKDSGLVRCPECNQAYNQKPGLE
B1 (MID1 RING domain): 0
RLTMMWEEVTCPICLDPFVEPVSIECGHSFCQECISQVGKGGGSVCPVCRQRFLLKNLRP (TRIM21 RING domain (UniProt P19474)): 0
B2 (RNF170 RING domain): 0
PEELQAMDNVCIICREEMVTGAKRLPCNHIFHTSCLRSWFQRQQTCPTCRMDVLRASLPA (SYVN1 RING domain (UniProt Q86TM6)): 0
B3 (RC3H2 RING domain): 0
B4 (TRIM8 RING domain): 0
EDEVSDNSAECVVCLSDVRDTLILPCRHLCLCNTCADTLRYQANNCPICRLPFRALLQIR (RNF157 RING domain (UniProt Q96PX1)): 0
DAIPSLSECQCGICMEILVEPVTLPCNHTLCKPCFQSTVEKASLCCPFCRRRVSSWTRYH (RNF168 RING domain (UniProt Q8IYW5)): 0

Study 3
Target: Protein max, full length (MAX, Homo sapiens, UniProt P61244-2, residues 1-151)
Method: protein-binding microarray
Molecule type: double-stranded DNA, one strand shown
Matrix: in vitro
Concentration: not given
Setting: k-mer, scored over probes, only values ≥0.25
Direction: higher = stronger binding
Quantity: E-score
ATCCCATG: 0.324
ACGTGTCA: 0.412
CACGCCGA: 0.369
ACATGTTA: 0.326
TCACGCCA: 0.283
AAGCACAT: 0.371
CACATGTA: 0.476
GTGCACCA: 0.267

Study 4
Target: HLA class I histocompatibility antigen, A alpha chain, allele A*80:01 (Homo sapiens, UniProt P04439)
Effect on: peptide-MHC binding
Molecule type: peptide
Concentration: concentration not given
Quantity: binding
KVIEKMEVL: inactive
KSAFYQSYL: inactive
AYDHGNVIL: inactive
DIKLIDIAL: inactive
LVAPHMAMM: inactive

Study 5
Target: CCNB1, cyclin fold, Cln2 fusion (human)
Method: yeast growth competition, sequencing
Matrix: yeast
Setting: strong parent motif
Reference: not given
Direction: higher = stronger binding
Quantity: normalised enrichment score
Starting sequence: viral docking peptide; KGVKRKLFAEDSS; partner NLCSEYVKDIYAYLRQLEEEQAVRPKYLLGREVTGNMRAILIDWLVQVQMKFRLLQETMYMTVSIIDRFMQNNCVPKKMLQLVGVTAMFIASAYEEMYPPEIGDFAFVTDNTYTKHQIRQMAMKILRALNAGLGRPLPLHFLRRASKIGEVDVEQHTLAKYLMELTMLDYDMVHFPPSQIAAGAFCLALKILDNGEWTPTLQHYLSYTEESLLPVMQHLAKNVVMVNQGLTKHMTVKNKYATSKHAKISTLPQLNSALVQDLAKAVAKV
L7Y: 0.352
V3D: -0.0252
S12W: 2.51
K6H: 0.35
G2T: 1.97
A9K: 1.09
K4R: 4.33
A9W: 1.38
E10F: 0.681
D11W: 0.798
G2N: 2.28
E10V: 0.831
K4H: 1
D11S: 1.65
G2P: 3.24
V3W: 0.53
A9L: 2.09
K4C: 4.42
R5Y: 0.0621
V3E: 0.216
R5F: 0.323
F8N: 0.097
G2S: 2.7
K4I: 4.25
E10Q: 0.817

For quick reference, copied from above (study 5):
E10Q: 0.817
R5F: 0.323
K4H: 1
G2S: 2.7
A9L: 2.09
A9K: 1.09
K6H: 0.35
V3W: 0.53
